Measurements of several laboratories.
Lines come from different studies, so protocols differ. “And” joins repeats or separate records; there may be more than shown.

SMILES | assay | system | conditions | scale | measurement | result
CC(C)c1nc(N(C)S(C)(=O)=O)nc(-c2ccc(F)cc2)c1/C=C/[C@@H](O)C[C@@H](O)CC(=O)O |  | human | oral, dose not given, with: omaveloxolone | baseline: substrate alone | AUC(0-inf) decrease | 30%
Cc1cc(-c2ccc(C(=O)[C@@H]3CCCC[C@H]3C(=O)Nc3cnn4c3C(=O)NCC4)cc2)[nH]n1 |  | human, faeces | oral, 200 mg, 0-216 h | baseline: dose | cumulative radioactivity recovery | 85.4% and 74.4% and 75.8% and 76.3% and 81.3% and 79.5%
O=C(Nc1ccc(C2CCCCC2)cc1)C1(N2CCOCC2)CC1 | liver microsome stability | human liver microsomes | 1 µM, without NADPH |  | hepatic clearance | 8.2 mL/min/kg
O=C(NS(=O)(=O)c1cccs1)c1cc2ccccc2n1Cc1ccc(Br)c2ccccc12 |  | rats | intravenous bolus, dose not given, 24 h |  | plasma concentration | not detected
COc1cccc(OC)c1-c1cc(C(=O)NC2(C(=O)O)C3CC4CC(C3)CC2C4)nn1-c1ccc(C(=O)N(C)CCOCCN(C)C(=O)[C@H](CCCCNC(=O)[C@H](CC(C)C)NC(=O)C2OC2C(=O)O)NC(=O)CN2CCN(CC(=O)[O-])CCN(CC(=O)[O-])CCN(CC(=O)[O-])CC2)cc1C(C)C.[177Lu+3] (mixture of isomers) |  | mouse, HT-29 xenograft, kidney | 4 h post injection |  | tissue uptake | 21 %ID/g
C=CC(=O)Nc1cc(Nc2nccc(-c3c[nH]c4ccccc34)n2)c(OC)cc1N(C)CCN(C)C | storage stability | human dried blood spot samples | 30 d, -80 °C, HQC level | baseline: nominal concentration | percentage recovery | 46.6%
COc1cc(N2CCN(C(=O)C3CCCN3)CC2)ccc1Nc1ncc(Cl)c(Nc2ccccc2P(C)(C)=O)n1 (centres unmarked) |  | nude mice, NCI-H3122 xenograft | oral, dose not given, day 16 |  | body weight | 22.9 g and 22.4 g and 23 g and 23.1 g and 25.1 g
O=C(N1CCCCC1)C12CC(c3ccccc3)(C1)C2(Cl)Cl | metabolic stability | human, liver microsomes | 2 µM, 15 min, pH 7.4 |  | compound remaining | 79%
COC1C=COC2(C)Oc3c(C)c(O)c4c(c3C2=O)C2=NC3(CCN(CC(C)C)CC3)NC2=C(NC(=O)C(C)=CC=CC(C)C(O)C(C)C(O)C(C)C(OC(=O)c2cccnc2)C1C)C4=O (centres unmarked) |  | CD-1 mouse female, plasma | oral, 10 mg/kg |  | fAUC/MIC ratio | 49.9
CN(C)C(=O)CNC(=O)c1ccc(C2CCCCC2)cc1 | hepatocyte stability | cryopreserved mouse hepatocytes | 1 µM |  | hepatic clearance | 80 mL/min/kg
O=C(Nc1cnccc1-c1ccc([18F])nc1)c1ccnc(NC(=O)C2CC2)c1 | PET imaging | FVB/NJ mice, both sexes, liver | intravenous, 10 min post-injection |  | SUV | 9.33
O=C(NCCO)c1ccc([C@H]2[C@@H](F)[C@@H](F)C[C@@H](F)[C@H]2F)cc1 | liver microsome stability | mouse liver microsomes | 1 µM |  | hepatic clearance | 14 mL/min/kg
COc1ccc2c(c1)CN(C(=O)CCN1CCC(Cc3ccccc3)CC1)CCS2 |  | human plasma | 75 ng/mL |  | fu | 0.018
NS(=O)(=O)c1cccc(-c2ccc([C@H]3[C@@H](F)[C@@H](F)C[C@@H](F)[C@H]3F)cc2)c1 | hepatocyte stability | cryopreserved human hepatocytes | 1 µM |  | hepatic clearance | 6.2 mL/min/kg
CCc1cnc(NC(=O)c2cc(S(=O)(=O)N3CCOCC3)ccc2N(C)C2CCCC2)s1 |  | mouse, serum | 10 mg/kg, 3 doses |  | Magnesium | 2.1 mEq/L
CC(=O)Nc1ccc(C2CCCCC2)cc1 | liver microsome stability | dog liver microsomes | 1 µM |  | hepatic clearance | 30 mL/min/kg
CC(C)=CCC1=C([O-])C(=O)c2ccccc2C1=O.CC(C)=CCC1=C([O-])C(=O)c2ccccc2C1=O.Cc1cc2cccnc2c2ncccc12.O.[Cu+2] | cyclic voltammetry | CH2Cl2, Bu4NPF6 | 0.1 mM | baseline: Ag/AgCl sat. KOH | Epc2 cathodic peak potential | 0.02 V

Repeated from above:
SMILES | assay | system | conditions | scale | measurement | result
O=C(NCCO)c1ccc([C@H]2[C@@H](F)[C@@H](F)C[C@@H](F)[C@H]2F)cc1 | liver microsome stability | mouse liver microsomes | 1 µM |  | hepatic clearance | 14 mL/min/kg
COc1ccc2c(c1)CN(C(=O)CCN1CCC(Cc3ccccc3)CC1)CCS2 |  | human plasma | 75 ng/mL |  | fu | 0.018
